Measurements collected from several papers.
Lines come from different studies, so protocols differ. ± gives the spread as reported.
U2AF2: U2AF2 148-342 (Homo sapiens, UniProt P26368)
Tln2: Tln2 312-408 (Mus musculus, UniProt Q71LX4)
B1: TOMM20 cytosolic domain, 62-127 (Homo sapiens, UniProt Q15388); N-terminal cysteine ATTO550 label; chain CDAEAVQKFFLEEIQLGEELLAQGEYEKGVDHLTNAIAVCGQPQQLLQVLQQTLPPPVFQMLLTKLP
B2: ATG9 1-255 (Saccharomyces cerevisiae, UniProt Q12142); sequence looked up; chain MERDEYQLPNSHGKNTFLSRIFGLQSDEVNPSLNSQEMSNFPLPDIERGSSLLHSTNDSREDVDENDLRVPESDQGTSTEEEDEVDEEQVQAYAPQISDGLDGDHQLNSVTSKENVLETEKSNLERLVEGSTDDSVPKVGQLSSEEEEDNEFINNDGFDDDTPLFQKSKIHEFSSKKSNTIEDGKRPLFFRHILQNNRPQRDTQKLFTSSNAIHHDKDKSANNGPRNINGNQKHGTKYFGSATQPRFTGSPLNNT
B3: CDC48A 1-190 (Arabidopsis thaliana, UniProt P54609); chain MSTPAESSDSKSKKDFSTAILERKKSPNRLVVDEAINDDNSVVSLHPATMEKLQLFRGDTILIKGKKRKDTVCIALADETCEEPKIRMNKVVRSNLRVRLGDVISVHQCPDVKYGKRVHILPVDDTVEGVTGNLFDAYLKPYFLEAYRPVRKGDLFLVRGGMRSVEFKVIETDPAEYCVVAPDTEIFCEG
B4: SMARCD3 SWIFT domain (Homo sapiens); chain MKQKRKLRLYISNTFNPAKPDAEDSDGSIASWELRVEGKLLDDPSKQKRKFSSFFKSLVIELDKDLYGPDNHLVEWHRTPTTQETDGFQVKRPGDLSVRCTLLLMLDYQPPQFLPPDPIVINHVISVDPSDQKKTACYDIDVEVEEPL
B5: human CCT2; sequence looked up; chain ASLSLAPVNIFKAGADEERAETARLTSFIGAIAIGDLVKSTLGPKGMDKILLSSGRDASLMVTNDGATILKNIGVDNPAAKVLVDMSRVQDDEVGDGTTSVTVLAAELLREAESLIAKKIHPQTIIAGWREATKAAREALLSSAVDHGSDEVKFRQDLMNIAGTTLSSKLLTHHKDHFTKLAVEAVLRLKGSGNLEAIHIIKKLGGSLADSYLDEGFLLDKKIGVNQPKRIENAKILIANTGMDTDKIKIFGSRVRVDSTAKVAEIEHAEKEKMKEKVERILKHGINCFINRQLIYNYPEQLFGAAGVMAIEHADFAGVERLALVTGGEIASTFDHPELVKLGSCKLIEEVMIGEDKLIHFSGVALGEACTIVLRGATQQILDEAERSLHDALCVLAQTVKDSRTVYGGGCSEMLMAHAVTQLANRTPGKEAVAMESYAKALRMLPTIIADNAGYDSADLVAQLRAAHSEGNTTAGLDMREGTIGDMAILGITESFQVKRQVLLSAAEAAEVILRVDNIIKAAPRKRVPDHHPC
B6: BTN2A2 287-523 M506T (Homo sapiens, UniProt Q8WVV5); sequence looked up; chain KKLQREKKILSGEKKVEQEEKEIAQQLQEELRWRRTFLHAADVVLDPDTAHPELFLSEDRRSVRRGPYRQRVPDNPERFDSQPCVLGWESFASGKHYWEVEVENVMVWTVGVCRHSVERKGEVLLIPQNGFWTLEMFGNQYRALSSPERILPLKESLCRVGVFLDYEAGDVSFYNMRDRSHIYTCPRSAFTVPVRPFFRLGSDDSPIFICPALTGASGVTVPEEGLKLHRVGTHQSL
B7: NRP1 (Arabidopsis thaliana); chain MVADKSKKSKIEEKGEEENLEQIDAELVLSIEKLQEIQDDLEKINEKASDEVLEVEQKYNVIRKPVYDKRNEVIQSIPGFWMTAFLSHPALGDLLTEEDQKIFKYLNSLEVEDAKDVKSGYSITFHFTSNPFFEDAKLTKTFTFLEEGTTKITATPIKWKEGKGLPNGVNHDDKKGNKRALPEESFFTWFTDAQHKEDAGDEIHDEVADIIKEDLWSNPLTYFNNDADEEDFDGDDDGDEEGEEDDDDEEEEDGEE
B8: GP1BA ligand-binding domain 17-306 (Homo sapiens, UniProt P07359); RED-NHS dye label; sequence looked up; chain HPICEVSKVASHLEVNCDKRNLTALPPDLPKDTTILHLSENLLYTFSLATLMPYTRLTQLNLDRCELTKLQVDGTLPVLGTLDLSHNQLQSLPLLGQTLPALTVLDVSFNRLTSLPLGALRGLGELQELYLKGNELKTLPPGLLTPTPKLEKLSLANNNLTELPAGLLNGLENLDTLLLQENSLYTIPKGFFGSHLLPFAFLHGNPWLCNCEILYFRRWLQDNAENVYVWKQGVDVKAMTSNVASVQCDNSDKFPVYKYPGKGCPTLGDEGDTDLYDYYPEEDTEGDKVR
B9: IL18 37-193 F57C/C74S/T81C/C104S/C112S/C163S (Homo sapiens, UniProt Q14116); chain YFGKLESKLSVIRNLNDQVLCIDQGNRPLFEDMTDSDSRDNAPRCIFIISMYKDSQPRGMAVTISVKSEKISTLSSENKIISFKEMNPPDNIKDTKSDIIFFQRSVPGHDNKMQFESSSYEGYFLASEKERDLFKLILKKEDELGDRSIMFTVQNED
B10: F10 factor Xa (Homo sapiens, UniProt P00742); light ANSFLEEMKKGHLERECMEETCSYEEAREVFEDSDKTNEFWNKYKDGDQCETSPCQNQGKCKDGLGEYTCTCLEGFEGKNCELFTRKLCSLDNGDCDQFCHEEQNSVVCSCARGYTLADNGKACIPTGPYPCGKQTLER; heavy IVGGQECKDGECPWQALLINEENEGFCGGTILSEFYILTAAHCLYQAKRFKVRVGDRNTEQEEGGEAVHEVEVVIKHNRFTKETYDFDIAVLRLKTPITFRMNVAPACLPERDWAESTLMTQKTGIVSGFGRTHEKGRQSTRLKMLEVPYVDRNSCKLSSSFIITQNMFCAGYDTKQEDACQGDSGGPHVTRFKDTYFVTGIVSWGEGCARKGKYGIYTKVTAFLKWIDRSMKTRGLPKAKSHAPEVITSSPLK
B11: ADAMTS13 75-1427 (Homo sapiens, UniProt Q76LX8); chain AAGGILHLELLVAVGPDVFQAHQEDTERYVLTNLNIGAELLRDPSLGAQFRVHLVKMVILTEPEGAPNITANLTSSLLSVCGWSQTINPEDDTDPGHADLVLYITRFDLELPDGNRQVRGVTQLGGACSPTWSCLITEDTGFDLGVTIAHEIGHSFGLEHDGAPGSGCGPSGHVMASDGAAPRAGLAWSPCSRRQLLSLLSAGRARCVWDPPRPQPGSAGHPPDAQPGLYYSANEQCRVAFGPKAVACTFAREHLDMCQALSCHTDPLDQSSCSRLLVPLLDGTECGVEKWCSKGRCRSLVELTPIAAVHGRWSSWGPRSPCSRSCGGGVVTRRRQCNNPRPAFGGRACVGADLQAEMCNTQACEKTQLEFMSQQCARTDGQPLRSSPGGASFYHWGAAVPHSQGDALCRHMCRAIGESFIMKRGDSFLDGTRCMPSGPREDGTLSLCVSGSCRTFGCDGRMDSQQVWDRCQVCGGDNSTCSPRKGSFTAGRAREYVTFLTVTPNLTSVYIANHRPLFTHLAVRIGGRYVVAGKMSISPNTTYPSLLEDGRVEYRVALTEDRLPRLEEIRIWGPLQEDADIQVYRRYGEEYGNLTRPDITFTYFQPKPRQAWVWAAVRGPCSVSCGAGLRWVNYSCLDQARKELVETVQCQGSQQPPAWPEACVLEPCPPYWAVGDFGPCSASCGGGLRERPVRCVEAQGSLLKTLPPARCRAGAQQPAVALETCNPQPCPARWEVSEPSSCTSAGGAGLALENETCVPGADGLEAPVTEGPGSVDEKLPAPEPCVGMSCPPGWGHLDATSAGEKAPSPWGSIRTGAQAAHVWTPAAGSCSVSCGRGLMELRFLCMDSALRVPVQEELCGLASKPGSRREVCQAVPCPARWQYKLAACSVSCGRGVVRRILYCARAHGEDDGEEILLDTQCQGLPRPEPQEACSLEPCPPRWKVMSLGPCSASCGLGTARRSVACVQLDQGQDVEVDEAACAALVRPEASVPCLIADCTYRWHVGTWMECSVSCGDGIQRRRDTCLGPQAQAPVPADFCQHLPKPVTVRGCWAGPCVGQGTPSLVPHEEAAAPGRTTATPAGASLEWSQARGLLFSPAPQPRRLLPGPQENSVQSSACGRQHLEPTGTIDMRGPGQADCAVAIGRPLGEVVTLRVLESSLNCSAGDMLLLWGRLTWRKMCRKLLDMTFSSKTNTLVVRQRCGRPGGGVLLRYGSQLAPETFYRECDMQLFGPWGEIVSPSLSPATSNAGGCRLFINVAPHARIAIHALATNMGAGTEGANASYILIRDTHSLRTTAFHGQQVLYWESESSQAEMEFSEGFLKAQASLRGQYWTLQSWVPEMQDPQSWKGKEGT

Molecule	target or system	test	system	setting	scale	quantity	result
GCCGAUUUC (ssRNA)	U2AF2	sequencing of bound RNA	RNA	motif only		Kd	2.11 µM
KLLMIIHDRREFAKFEKEKMNAKWDTQENPIYKEPINNFKNPNYGRKAGL (ITGB1 752-801 S785E (Homo sapiens, UniProt P05556-5); sequence looked up)	Tln2	NMR titration				Kd	71 µM
B1	Fem1b (Mus musculus, UniProt Q9Z2G0)	fluorescence polarisation				Kd	0.12 µM
ARTKQTARKS (histone H3 1-10; K4me3)	ING1 163-234 Y180A (Arabidopsis thaliana, UniProt Q9LIQ6)	ITC	peptide			Kd	6.85 ± 0.61 µM
B2 (ATG9 1-255)	Atg23 full-length, dimer (yeast, UniProt Q06671)	ITC		pH 8, 20 °C, NaCl 150 mM		Kd	5.6 µM
ARTKQTARKSTGGKAPRKQ (H3C1 residues 1-19)	SUZ12/RBBP4 SUZ12 76-545 (Homo sapiens)	ITC	peptide			Kd	70.1 µM
B3 (CDC48A 1-190)	PUX7 (Arabidopsis thaliana, UniProt Q94JZ8)	BLI		25 °C		Kd	0.0205 ± 0.0002 µM
UBE2D2 (Homo sapiens, UniProt P62837)	NEDD4 HECT domain, Cy5 N-terminus (Homo sapiens)	MST		with: Ub 100 µM		Kd	266 ± 118 µM
B4 (SMARCD3 SWIFT domain)	POU2F3 (UniProt Q9UKI9)	MST				Kd	> 13 µM
VGSPKNAVPP (IL1RAP 234-243 (Homo sapiens); acetylated N-terminus/C-terminal amide)	IL1RL1/IL33 ST2 , IL-33 19-328	SPR	peptide			Kd	105 µM
B5 (human CCT2)	CYB5R4 knockout human cells	PP4 interaction, 3xFLAG-PP4C IP-MS		concentration not given	reference: CYB5R4 KO over parental	log2 fold change	0.81
B6 (BTN2A2 287-523 M506T)	BTN3A3 272-584 R381H (Homo sapiens, UniProt O00478)	ITC				Kd	0.031 µM
B7 (NRP1)	H3 fragment (Xenopus laevis)	SPR				Kd	57.9 µM
B8	VWF fragment C1669A/C1670A (Homo sapiens)	MST				Kd	0.122 µM
VASP EVH1 domain (Dictyostelium discoideum)	ABI3 peptide (Homo sapiens)	BLI				Kd	> 100 µM
CUUCCCUUU (ssRNA)	U2AF2	sequencing of bound RNA	RNA	motif only		Kd	2.42 µM
B9	IL18BP (Homo sapiens, UniProt O95998)	SPR				Kd	7e-06 µM
KDR (Homo sapiens, UniProt P35968)	ramucirumab IgG, PBS-stressed 28 d, Fc heavy chain Asn deamidation	SPR				Kd	0.00032 µM
DHEYVLTESFLDSGAFPNHDVIDHNKMLNSNYNGNGILNKGGVLGLVKEYYKKSDVGR (ATG9 940-997 (Saccharomyces cerevisiae, UniProt Q12142); sequence looked up)	ATG23 A34E (Saccharomyces cerevisiae, UniProt Q06671)	BLI				Kd	0.57 µM
B10 (F10 factor Xa)	factor Va R506Q (Homo sapiens, UniProt P12259)	thrombin generation, prothrombinase activity titration				Kd	0.0002 ± 1e-05 µM
B11 (ADAMTS13 75-1427)	APOB/LDL apoB100 (Homo sapiens)	ELISA				Kd	0.0108 µM
SWC5 fragment (Saccharomyces cerevisiae)	H2A/H2B dimer (Homo sapiens)	ITC				Kd	6.2 µM
GHMMSKLFLDELPESLSRKIGTVVRVLPSSLEIFEELYKYALNEN (RTT106 residues 1-42 (Saccharomyces cerevisiae, UniProt P40161))	histone H3/H4 tetramer (Xenopus laevis)	ITC				Kd	0.6 µM
IGHA1 hinge (Homo sapiens)	TFRC 101-760 (Homo sapiens, UniProt P02786)	SPR				Kd	51.6 µM
Notch ankyrin domain H215A/M216A/R218A/R107A (Drosophila)	dx (Drosophila melanogaster, UniProt Q23985)	AUC				Kd	20.7 µM
KLLMIIHDRREFAKFEKEKMNAKADTQENPIYKSPINNFKNPNYGRKAGL (ITGB1 752-801 W775A (Homo sapiens, UniProt P05556-5); sequence looked up)	Tln2	NMR titration				Kd	258 µM
POTE ankyrin domain F (human)	CYB5R4 knockout human cells	PP6 interaction, 3xFLAG-PP6C IP-MS		concentration not given	reference: CYB5R4 KO over parental	log2 fold change	0.09

Excerpt of the above:
Molecule	target or system	test	system	setting	scale	quantity	result
ARTKQTARKS (histone H3 1-10; K4me3)	ING1 163-234 Y180A (Arabidopsis thaliana, UniProt Q9LIQ6)	ITC	peptide			Kd	6.85 ± 0.61 µM
B2 (ATG9 1-255)	Atg23 full-length, dimer (yeast, UniProt Q06671)	ITC		pH 8, 20 °C, NaCl 150 mM		Kd	5.6 µM
ARTKQTARKSTGGKAPRKQ (H3C1 residues 1-19)	SUZ12/RBBP4 SUZ12 76-545 (Homo sapiens)	ITC	peptide			Kd	70.1 µM
B3 (CDC48A 1-190)	PUX7 (Arabidopsis thaliana, UniProt Q94JZ8)	BLI		25 °C		Kd	0.0205 ± 0.0002 µM
